{"data": "Measured values pooled from the literature", "note": "Every numbered part comes from another study and shows a few of its results, in no order. Positions count from the first letter of the parent shown."}
{"data": "Block 1", "target": "Interferon regulatory factor 7, full length, phosphomimetic (IRF7, Homo sapiens, UniProt Q92985, residues 1-503, S101K/S471D/S472D/S475D/S476D/S477D/S483D/S484D/S487D)", "method": "protein-binding microarray", "molecule type": "double-stranded DNA, one strand shown", "matrix": "in vitro", "tested at": "250 nM", "notes": "60-bp whole probe", "added": "salmon DNA 0.4 mg/ml", "reference": "random background probes", "reading": "higher = stronger binding", "all sequences stand within": "GCCTAGCAC … GTCTTGATTCGCTTGACGCTGCTG", "UniProt Q92985, sequence (whole entry, unmodified, looked up)": "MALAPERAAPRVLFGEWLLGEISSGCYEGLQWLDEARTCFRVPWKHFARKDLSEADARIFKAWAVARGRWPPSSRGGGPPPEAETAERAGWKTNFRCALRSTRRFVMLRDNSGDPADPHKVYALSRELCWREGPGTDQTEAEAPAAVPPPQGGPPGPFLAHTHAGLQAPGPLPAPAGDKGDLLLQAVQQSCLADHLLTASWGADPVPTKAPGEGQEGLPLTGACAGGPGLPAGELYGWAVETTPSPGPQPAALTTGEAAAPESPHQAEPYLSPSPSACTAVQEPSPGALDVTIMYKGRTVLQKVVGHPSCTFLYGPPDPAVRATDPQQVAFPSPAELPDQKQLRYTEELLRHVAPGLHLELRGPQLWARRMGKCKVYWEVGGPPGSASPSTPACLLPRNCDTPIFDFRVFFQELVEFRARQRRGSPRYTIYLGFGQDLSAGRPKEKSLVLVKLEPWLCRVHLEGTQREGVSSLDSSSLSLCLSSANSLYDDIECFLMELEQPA"}
{"Sequence": "TCACATACTAGTTTCCAACTGTGCTAG", "log fluorescence [z-score]": 1.35}
{"Sequence": "TTAGGTTTTGGGACTGGGTTAGTGCTA", "log fluorescence [z-score]": 0.395}
{"Sequence": "TTAGAACTGGGGTTTCGAATAGTGCTA", "log fluorescence [z-score]": 1.99}
{"Sequence": "TTAGATTTCGGTACTGGATTAGTGCTA", "log fluorescence [z-score]": 0.901}
{"Sequence": "TTAGGTCGCCTTTTCCTTTAGTGCTAG", "log fluorescence [z-score]": 0.601}
{"Sequence": "GACGATCTCAGTTGCGAGACGTGCTAG", "log fluorescence [z-score]": 0.262}
{"Sequence": "ACTAGTTTCCATTTTCAGAAGTGCTAG", "log fluorescence [z-score]": 9.82}
{"Sequence": "CCCCCAGGATTCAATTACCAGTGCTAG", "log fluorescence [z-score]": -0.345}
{"data": "Block 2", "target": "Prothrombin, mature alpha-thrombin (F2, Homo sapiens, UniProt P00734)", "method": "aptamer microarray, sandwich", "molecule type": "DNA with 2'F-ANA", "matrix": "in vitro", "tested at": "200 nM", "notes": "whole 15-mer aptamer, many near background", "added": "Cy3 exosite-II aptamer, 400 nM", "reading": "higher = stronger binding", "sequence": "GGTTGGTGTGGTTGG"}
{"Modification": "2'F-ANA at 1 2 4 6 7 11 12 13 14 15", "mean fluorescence intensity [a.u.]": 67.4}
{"Modification": "2'F-ANA at 1 4 7 8 9 11", "mean fluorescence intensity [a.u.]": 142}
{"Modification": "2'F-ANA at 1 3 5 6 11 13 15", "mean fluorescence intensity [a.u.]": 59.3}
{"Modification": "2'F-ANA at 4 5 10 12", "mean fluorescence intensity [a.u.]": 52.4}
{"Modification": "2'F-ANA at 1 2 3 4 6 7 8 11 13 15", "mean fluorescence intensity [a.u.]": 166}
{"Modification": "2'F-ANA at 3 5 7 8 11 12 14", "mean fluorescence intensity [a.u.]": 68.1}
{"Modification": "2'F-ANA at 3 4 5 6 8 9 11 15", "mean fluorescence intensity [a.u.]": 73}
{"Modification": "2'F-ANA at 1 5 7 8 10 11 14", "mean fluorescence intensity [a.u.]": 42.3}
{"data": "Mixed results", "P1": "PafA, mature enzyme, eGFP fusion (Elizabethkingia meningoseptica, UniProt Q9KJX5); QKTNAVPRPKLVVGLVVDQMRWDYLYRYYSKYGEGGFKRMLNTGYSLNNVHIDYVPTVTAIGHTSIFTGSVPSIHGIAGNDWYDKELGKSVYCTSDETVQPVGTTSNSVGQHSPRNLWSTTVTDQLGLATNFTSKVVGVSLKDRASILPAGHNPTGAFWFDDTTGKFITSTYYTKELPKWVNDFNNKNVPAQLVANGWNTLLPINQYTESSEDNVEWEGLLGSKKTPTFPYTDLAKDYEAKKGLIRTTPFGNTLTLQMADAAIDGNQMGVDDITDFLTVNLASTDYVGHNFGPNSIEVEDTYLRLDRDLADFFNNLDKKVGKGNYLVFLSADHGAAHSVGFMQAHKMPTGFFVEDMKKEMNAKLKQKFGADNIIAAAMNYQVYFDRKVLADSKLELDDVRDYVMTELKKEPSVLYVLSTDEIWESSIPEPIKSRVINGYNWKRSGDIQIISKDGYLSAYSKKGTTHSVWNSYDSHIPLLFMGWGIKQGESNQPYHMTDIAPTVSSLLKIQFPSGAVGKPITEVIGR"}
{"Substance": "P1 N491G", "target": "tungstate, free oxyanion", "test": "microfluidic competitive inhibition", "system": "in vitro, cell-free expressed", "conditions": "not given, derived from inhibition constants, unchanged parent 2230 nM", "how to read": "lower = stronger binding", "endpoint": "oxyanion analog dissociation constant", "value": "2120 nM"}
{"Substance": "PhoQ, residues 284 288 289 292 302 303 AGGCYF", "target": "PhoP, residues 12 14 15 18 19 NHTVL (Escherichia coli, UniProt P23836)", "test": "Sort-seq, refers to: YFP reporter", "system": "E. coli", "conditions": "PhoQ-PhoP variant library, added: 10 µM Mg2+", "how to read": "reference: high Mg2+ state, higher = stronger signaling", "endpoint": "fold induction", "value": 1.96}
{"note": "A few entries again (block 2):"}
{"Modification": "2'F-ANA at 1 2 3 4 6 7 8 11 13 15", "mean fluorescence intensity [a.u.]": 166}
{"Modification": "2'F-ANA at 4 5 10 12", "mean fluorescence intensity [a.u.]": 52.4}
{"Modification": "2'F-ANA at 1 4 7 8 9 11", "mean fluorescence intensity [a.u.]": 142}
